Experimental data collected from several papers.
Each line is one published result; not all experiments were run side by side.

With `CCOc1c([C@H](C)n2nc(C)c3c(N)ncnc32)cc(Cl)c(F)c1[C@@H]1CNC(=O)C1` the Cmax was 2.11 µM (human patients, plasma; oral, 30 mg, day 1, geometric mean).
`CCn1cc(C(=O)N2CCOCC2)c(=O)c2cc(NC3Cc4ccccc4C3)cnc21` has a Cmax of 1.73 µg/mL (human, fasted; oral tablet, 300 mg single dose, arithmetic mean).
`C[C@@H]1CCO[C@H]2Cn3cc(C(=O)NCc4ccc(F)cc4F)c(=O)c(O)c3C(=O)N12` has a Cmax of 2.65 µg/mL (human paediatric patients, weight sample C to under sample D kg, plasma; oral, 25 mg film-coated tablet, steady state, geometric mean, population PK post-hoc, N 26).
The Cmax of `CO[C@H]1C[C@@H]2CC[C@@H](C)[C@@](O)(O2)C(=O)C(=O)N2CCCC[C@H]2C(=O)O[C@H]([C@H](C)C[C@@H]2CC[C@@H](OC(=O)NCCOCCOCCOCCOCCOCCOCCOCCOCCC(=O)N3CCc4cc(Cn5nc(-c6ccc7oc(N)nc7c6)c6c(N)ncnc65)ccc4C3)[C@H](OC)C2)C[C@@H](O)[C@H](C)/C=C(\C)[C@@H](O)[C@@H](OC)C(=O)[C@H](C)C[C@H](C)/C=C/C=C/C=C/1C` is reported as 0.12 µg/mL (human, plasma; intravenous, 3 mg, cycle 1 day 15, arithmetic mean).
With `CC(C)[C@H](N)C(=O)NCCCS(=O)(=O)O` the Cmax was 4.83 µg/mL (human, plasma; oral, 171 mg twice daily days 2-7, day 7, fasted, capsule).
`O=C(COc1ccc(Cl)cc1)NC12CC(c3nnc([C@H]4C[C@@H](OC(F)(F)F)C4)o3)(C1)C2` has a Cmax of 7.16 µM (healthy human volunteers fasted, plasma; oral, 800 mg single dose, geometric mean).
For `COc1ncc(-c2nc3c(n2C(C)C)[C@H](c2ccc(Cl)cc2)N(c2cc(Cl)cn(C)c2=O)C3=O)c(OC)n1`, the Cmax was 0.118 µg/mL (LC-MS/MS; human, plasma; oral, 12.5 mg, cycle 1 day 1, high-dose arm).
For `Cl.[2H]C([2H])([2H])CC(=O)c1cnc(NC(=O)C2CC2)cc1Nc1cccc(-c2ncn(C([2H])([2H])[2H])n2)c1OC`, the Cmax was 0.357 µg/mL (human, fed, multiple dose; oral, 60 mg once daily, tablet, day 1, geometric mean).
`O=C(O)CCC(=O)O.[2H]C([2H])([2H])Oc1cc(C)c2[nH]ccc2c1CN1CC[C@@H](C2CC2)C[C@H]1c1ccc(C(=O)O)cc1` gave a Cmax of 1.71 µg/mL (human, plasma; 125 mg twice daily, day 1, multiple ascending dose, geometric mean).
`CCN1CCN(Cc2ccc(Nc3ncc(F)c(-c4cc(F)c5nc6n(c5c4)[C@H](C)CCC6)n3)nc2)CC1` has a Cmax of 0.107 µg/mL (human, plasma; 100 mg single dose, mean).
`CN1C(=O)[C@@H](NC(=O)c2nnc(Cc3ccccc3)[nH]2)COc2cccnc21` gave a Cmax of 1.78 µg/mL (healthy human, fasted, plasma; oral, 100 mg single dose, geometric mean).
`C=CC(=O)N(C)CCOc1c(N)ncnc1-c1cc(F)cc(NC(=O)c2ccc(C3CC3)cc2F)c1C` has a Cmax of 0.141 µg/mL (human, whole blood; oral, 100 mg single dose).
`C[C@@H](Nc1cc(F)cc(F)c1)c1cc(C(=O)N(C)C)cc2c(=O)cc(N3CCOCC3)oc12` gave a Cmax of 0.982 µg/mL (human, dose-finding arm, plasma; oral, 120 mg twice daily, geometric least-squares mean, together with: abiraterone 1000 mg).
`COc1cc(N2CCC(N3CCN(C)CC3)CC2)ccc1Nc1ncnc(Nc2ccccc2S(=O)(=O)C(C)C)n1` has a Cmax of 0.382 µg/mL (human, plasma; oral, 200 mg, day 1).
